Experimental data of several laboratories.
Compare with care: the assays were run in different laboratories. Values joined by “and” are separate records of one study, mostly repeats; a detail may differ. ± gives the spread as reported. Values after ≈ are worked out from the molar mass of the structure shown.

With `C=C(C)[C@@H]1CC[C@]2(C(=O)O)CC[C@]3(C)[C@H](CC[C@@H]4[C@@]5(C)CC[C@H](O)C(C)(C)[C@@H]5CC[C@]43C)[C@@H]12` the maximum inhibition was 21.3% (human coronavirus OC43; virus-induced cell killing; MRC-5; screen).
For `COc1cc2ccc3oc([N+](=O)[O-])cc3c2cc1OC`, the MIC90 was over 32 µg/mL (Salmonella enterica; REMA).
`COc1ccc(NC(=O)N2CCCCN3[C@H](CN(C)C)[C@H](c4ccc(C#Cc5ccccc5)cc4)[C@@H]3C2)cc1`: inhibition “inhibited” (Toxoplasma gondii; ex vivo bradyzoite plaques; ME49; 3 times EC90, continuous exposure).
With `Cn1cc(-c2ccc3occ(-c4ccccc4-c4ccccc4)c3n2)cn1` the inhibition was 9% (mouse hepatitis virus; viral replication; nanoluciferase reporter; 1 µM).
`OC[C@H]1O[C@@H](n2ccc3c(SCc4ccc(F)cc4F)ncnc32)[C@H](O)[C@@H]1O` has an IC50 of 8.3 ± 0.1 µM (Toxoplasma gondii; intracellular parasite growth, [3H]uracil incorporation; human foreskin fibroblasts, RH wild type).
`CS(=O)(=O)CCCn1c(Cn2c(=O)n(CC(F)(F)F)c3ccncc32)cc2cc(Cl)ccc21` — result for “LS mean viral load change”: -3.82 log10 copies/mL (respiratory syncytial virus; RT-qPCR; hospitalized infants 1-24 months, nasal swab; oral, 2, 1.5 or 1 mg/kg daily, day 6, low dose by age cohort; relative to: baseline).
With `CN(C)C(=O)/C(C#N)=C/c1ccc(-c2nc3cnc4c(ccn4C)c3n2C2CCCCC2)o1` the inhibition was 30% (mouse hepatitis virus; viral replication; nanoluciferase reporter; 1 µM).
`C=C(c1ccc(C(=O)O)cc1)c1cc2c(cc1C)C(C)(C)CCC2(C)C` has a maximum inhibition of 7.22% (human coronavirus OC43; virus-induced cell killing; MRC-5; screen).
`CN(C)CCCn1cc(C2=C(c3c[nH]c4ccccc34)C(=O)NC2=O)c2ccccc21` gave an inhibition of 37% (mouse hepatitis virus; viral replication; nanoluciferase reporter; 1 µM).
With `Cc1c2c(nn1C)CSCc1cc(n(C)n1)CSc1cc(c3ccccc3c1)OCCCc1c(C(=O)O)n(C)c3c-2c(Cl)ccc13` the fold change was 0.0171 (Staphylococcus aureus; label-free quantitative proteomics, measured: SAOUHSC_00113 protein; SA113; concentration not given; relative to: untreated control).
With `O=[N+]([O-])c1cc2c(ccc3c2ccc2cc([N+](=O)[O-])oc23)o1` the MIC90 was over 32 µg/mL (Mycobacteroides abscessus; REMA; ATCC 19977).
With `C[C@@H](Oc1cc(-c2cnn(C3CCNCC3)c2)cnc1N)c1c(Cl)ccc(F)c1Cl` the maximum inhibition was 0% (human coronavirus OC43; virus-induced cell killing; MRC-5; maximum over 10 doses).
The maximal activity of `O=c1[nH]sc2cc(F)ccc12` is reported as 62% (Mus musculus; gene silencing, high-content imaging; LDR reporter GFP cells; retest run 2).
`C[C@@H]1CCN(C(=O)CC#N)C[C@@H]1N(C)c1ncnc2[nH]ccc12` has a maximum inhibition of 12.3% (human coronavirus OC43; virus-induced cell killing; MRC-5; screen).
With `O=C(O)c1ccc(-c2coc3ncc(-c4ccccc4)cc23)cc1Cl` the inhibition was 66% (mouse hepatitis virus; viral replication; nanoluciferase reporter; 1 µM).
`Cc1ccc(CSc2ncnc3c2ccn3[C@@H]2O[C@H](CO)[C@@H](O)[C@H]2O)cc1` has a survival of 1.7% (Toxoplasma gondii; [3H]uracil incorporation; human fibroblasts, RH wild type; 25 µM).
For `CN[C@H](CC(C)C)C(=O)N[C@H]1C(=O)N[C@@H](CC(N)=O)C(=O)N[C@H]2C(=O)N[C@H]3C(=O)N[C@H](C(=O)N[C@H](C(=O)O)c4cc(O)cc(O)c4-c4cc3ccc4O)[C@H](O)c3ccc(c(Cl)c3)Oc3cc2cc(c3O[C@@H]2O[C@H](CO)[C@@H](O)[C@H](O)[C@H]2O[C@H]2C[C@](C)(N)[C@H](O)[C@H](C)O2)Oc2ccc(cc2Cl)[C@H]1O`, the MIC90 was 2 µg/mL (≈ 1.38 µM) (Staphylococcus, coagulase-negative).
With `CCCCc1ccc(CNc2nc(N(C)C)nc(N(C)C)c2/N=N/c2ccc(Cl)cc2)cc1` the mortality was 100% (Ostrinia furnacalis; leaf dipping; 500 mg/L, 96 h).
For `CNC[C@H](O)[C@@H](O)[C@H](O)[C@H](O)CO.[O]=[Sb](=[O])[OH]`, “lesion size difference” read 6.36 (Leishmania major; BALB/c mouse; topical, dose not given, 14 days, unit not given; relative to: PBS).
For `O=C(NCc1ccccc1)c1ccc(S(=O)(=O)NCc2ccccc2)cc1`, the inhibition was 31% (mouse hepatitis virus; viral replication; nanoluciferase reporter; 1 µM).
With `CC[C@H]1OC(=O)[C@H](C)[C@@H](O[C@H]2C[C@@](C)(OC)[C@@H](O)[C@H](C)O2)[C@H](C)[C@@H](O[C@@H]2O[C@H](C)C[C@H](N(C)C)[C@H]2O)[C@](C)(O)C[C@@H](C)CN(C)[C@H](C)[C@@H](O)[C@]1(C)O` the MIC90 was 4 µg/mL (≈ 5.34 µM) (Streptococcus pyogenes).
With `COc1ccc2ccc3oc([N+](=O)[O-])cc3c2c1Br` the MIC90 was under 0.25 µg/mL (Salmonella enterica; REMA).
`CNCc1ccc(-c2[nH]c3cc(F)cc4c3c2CCNC4=O)cc1` gave a maximum inhibition of 0% (human coronavirus OC43; virus-induced cell killing; MRC-5; maximum over 10 doses).
For `OB(O)c1csc2ccccc12`, “time of death” read 24 h and 36 h and 6 h and 30 h and 12 h and 18 h (Staphylococcus aureus; wild type, Galleria mellonella larvae; concentration not given).
With `N#Cc1c(NC(=O)c2cccc3ccccc23)sc2c1CCCC2` the maximum inhibition was 0% (human coronavirus OC43; virus-induced cell killing; MRC-5; maximum over 10 doses).
For `N=C(N)NCCC[C@H](NC(=O)[C@H](Cc1c[nH]c2ccccc12)NC(=O)[C@H](CCCNC(=N)N)NC(=O)[C@H](Cc1c[nH]c2ccccc12)NC(=O)[C@H](Cc1c[nH]c2ccccc12)NC(=O)[C@H](Cc1c[nH]c2ccccc12)NC(=O)[C@H](CCCNC(=N)N)NC(=O)[C@H](Cc1c[nH]c2ccccc12)NC(=O)[C@@H](N)CCCNC(=N)N)C(=O)N[C@@H](Cc1c[nH]c2ccccc12)C(N)=O`, the MIC was 8 µM (≈ 14.1 µg/mL) (Candida albicans; broth microdilution; 14936, RPMI 1640-MOPS; 48 h, 30 °C).
The MIC90 of `Cn1c(=O)ccc2ccc(F)c(CCNC[C@H]3CN(c4cnc5c(n4)NC(=O)CO5)C(=O)O3)c21` is reported as 0.25 µg/mL (≈ 0.534 µM) (Stenotrophomonas maltophilia).
With `COc1ncc(-c2ccc3nccc(-c4ccnnc4)c3c2)cc1NS(=O)(=O)c1ccc(F)cc1F` the maximum inhibition was 2.93% (human coronavirus OC43; virus-induced cell killing; MRC-5; screen).
The IC50 of `OC[C@H]1O[C@@H](n2ccc3c(SCc4ccc(Cl)c(Cl)c4)ncnc32)[C@H](O)[C@@H]1O` is reported as 11.5 ± 1.4 µM (Toxoplasma gondii; intracellular parasite growth, [3H]uracil incorporation; human foreskin fibroblasts, RH wild type).
With `CC[C@H](C)[C@H](NC(=O)[C@H](C)NC(=O)[C@H](CCCCN)NC(=O)[C@H](CC(C)C)NC(=O)[C@H](C)NC(=O)[C@@H](NC(=O)[C@H](Cc1c[nH]cn1)NC(=O)[C@H](CC(C)C)NC(=O)[C@@H](NC(=O)[C@@H](NC(=O)[C@H](CCCCN)NC(=O)[C@H](C)NC(=O)[C@H](C)NC(=O)[C@H](CO)NC(=O)[C@H](CCCCN)NC(=O)[C@H](Cc1ccccc1)NC(=O)[C@@H](NC(=O)[C@H](CCCCN)NC(=O)[C@H](CC(C)C)NC(=O)[C@H](Cc1ccccc1)NC(=O)[C@H](CO)NC(=O)[C@H](CCCCN)NC(=O)[C@H](Cc1c[nH]c2ccccc12)NC(=O)[C@H](CCCCN)NC(C)=O)[C@@H](C)O)[C@@H](C)O)C(C)C)[C@@H](C)O)C(=O)N[C@@H](CO)C(=O)N[C@@H](CO)C(N)=O` the MBC was 8 µg/mL (≈ 2.73 µM) (Klebsiella pneumoniae; ESBL ATCC 700603; range).
`CN1CC[C@@]2(C)c3cc(OC(=O)Nc4ccccc4)ccc3N(C)[C@@H]12` gave an EC90 of 78.8 µM (Toxoplasma gondii; parasite growth; HFF, bradyzoite, alkaline-induced).
The survival of `OC[C@H]1O[C@@H](n2ccc3c(SCc4ccc(Cl)cc4Cl)ncnc32)[C@H](O)[C@@H]1O` is reported as 12.9% (Toxoplasma gondii; [3H]uracil incorporation; human fibroblasts, RH wild type; 25 µM).
For `C[C@H]1CCC/C=C/[C@@H]2C[C@H](O)C[C@H]2[C@H](O)/C=C/C(=O)O1`, the EC90 was 0.073 µM (Toxoplasma gondii; parasite growth, luciferase reporter; HFF, tachyzoite; 72 h).
`Nc1ncnc2c1ncn2[C@@H]1O[C@@H]2COP(=O)(O)O[C@H]3[C@@H](O)[C@H](n4cnc5c(=O)[nH]cnc54)O[C@@H]3COP(=O)(O)O[C@H]2[C@H]1O` has a fold enrichment of 6.73 (West Nile virus; RNA sequencing, measured: cell junction organization R-HSA-446728; HFF-1 cells; concentration not given, downregulated pathway; relative to: WNV-infected untreated cells).
For `CO[C@H]1/C=C/O[C@@]2(C)Oc3c(C)c(O)c4c(O)c(c(/C=N/N5CCN(C)CC5)c(O)c4c3C2=O)NC(=O)/C(C)=C\C=C\[C@H](C)[C@H](O)[C@@H](C)[C@@H](O)[C@@H](C)[C@H](OC(C)=O)[C@@H]1C`, the MIC90 was over 32 µg/mL (Mycobacteroides abscessus; REMA; ATCC 19977).
The IC50 of `CCOC(=O)/C=C/[C@H](C[C@@H]1CCNC1=O)NC(=O)[C@@H](CC(=O)[C@@H](NC(=O)c1cc(C)on1)C(C)C)Cc1ccc(F)cc1` is reported as 0.009 µM (Rhinovirus C; viral replication, high-content imaging; HeLa-CDHR3 C529Y, RV-C15a-mGL; 3 dpi).
`CCCCCCCCCCCCCCCCCCO` — result for cccDNA level: “no effect” (hepatitis B virus; HepAD38; 25 µM, 48 h).
With `O=[N+]([O-])c1cc2c(ccc3c4cc([N+](=O)[O-])oc4ccc23)o1` the MIC90 was over 32 µg/mL (Mycobacteroides abscessus; REMA; ATCC 19977).
For `C[C@@H]1C[C@@H]([C@H](O)CC2CC(=O)NC(=O)C2)C(=O)[C@@H](C)C1`, the AC50 was 10 µM (Mus musculus; gene silencing, high-content imaging; LDR reporter GFP cells; retest run 1).
The EC50 of `COc1ccc([C@@]23Oc4cc(OC)cc(OC)c4[C@@]24N=C(C)N[C@@]4(O)[C@H](C(=O)N(C)OC)[C@H]3c2ccccc2)cc1` is reported as 0.0012 µM (Hepatitis E virus; viral replication; HepG2 HEV-3 replicon, genotype 3 wild boar isolate; 48 h).
For `CCc1cncnc1N1CCN(Cc2nc3ccc(C(F)(F)F)cc3[nH]2)CC1`, the inhibition was 0% (mouse hepatitis virus; viral replication; nanoluciferase reporter; 1 µM).
For `COC(=O)N[C@H](C(=O)N1CCC[C@H]1c1ncc(-c2ccc(-c3ccc(-c4cnc([C@@H]5CCCN5C(=O)[C@@H](NC(=O)OC)C(C)C)[nH]4)cc3)cc2)[nH]1)C(C)C`, the combination index was 0.96 (Hepatitis C virus; replicon cells; 90% effect level, together with: NS5B inhibitor, ratio 1:1).
`NC(=O)c1ncn([C@@H]2O[C@H](CO)[C@@H](O)[C@H]2O)n1` gave an inhibition of 86.6% (Hepatitis E virus; viral replication, RT-qPCR of encapsidated RNA, measured: HEV RNA copies; genotype 1, full-genome replicon, cell supernatant; 3.1 µM, 48 h, together with: artesunate 23.4 µM).
The MIC90 of `COc1ccc2c(ccc3oc([N+](=O)[O-])cc32)c1` is reported as under 0.25 µg/mL (Salmonella enterica; REMA).
`CN(c1ccc(NC(=O)c2cccc(C(=N)N)c2)cc1OCc1ccc(C(=N)N)cc1)S(=O)(=O)Cc1ccccc1` — result for “polymerised tubulin amount”: “decreased” (Trypanosoma brucei; western blot; 500 and 1000 nM).
`Nc1c([N+](=O)[O-])oc2ccc3ccccc3c12` gave an MIC90 of 16 µg/mL (≈ 70.1 µM) (Salmonella enterica; REMA).
With `N[C@@H]1CCCN(c2c(/C=C3\SC(=O)NC3=O)cccc2-c2ccccc2)C1` the maximum inhibition was 2.64% (human coronavirus OC43; virus-induced cell killing; MRC-5; screen).

Some of these lines once more:
The IC50 of `CCOC(=O)/C=C/[C@H](C[C@@H]1CCNC1=O)NC(=O)[C@@H](CC(=O)[C@@H](NC(=O)c1cc(C)on1)C(C)C)Cc1ccc(F)cc1` is reported as 0.009 µM (Rhinovirus C; viral replication, high-content imaging; HeLa-CDHR3 C529Y, RV-C15a-mGL; 3 dpi).
`CS(=O)(=O)CCCn1c(Cn2c(=O)n(CC(F)(F)F)c3ccncc32)cc2cc(Cl)ccc21` — result for “LS mean viral load change”: -3.82 log10 copies/mL (respiratory syncytial virus; RT-qPCR; hospitalized infants 1-24 months, nasal swab; oral, 2, 1.5 or 1 mg/kg daily, day 6, low dose by age cohort; relative to: baseline).
With `CN(C)C(=O)/C(C#N)=C/c1ccc(-c2nc3cnc4c(ccn4C)c3n2C2CCCCC2)o1` the inhibition was 30% (mouse hepatitis virus; viral replication; nanoluciferase reporter; 1 µM).
`NC(=O)c1ncn([C@@H]2O[C@H](CO)[C@@H](O)[C@H]2O)n1` gave an inhibition of 86.6% (Hepatitis E virus; viral replication, RT-qPCR of encapsidated RNA, measured: HEV RNA copies; genotype 1, full-genome replicon, cell supernatant; 3.1 µM, 48 h, together with: artesunate 23.4 µM).
With `Cc1c2c(nn1C)CSCc1cc(n(C)n1)CSc1cc(c3ccccc3c1)OCCCc1c(C(=O)O)n(C)c3c-2c(Cl)ccc13` the fold change was 0.0171 (Staphylococcus aureus; label-free quantitative proteomics, measured: SAOUHSC_00113 protein; SA113; concentration not given; relative to: untreated control).
With `N[C@@H]1CCCN(c2c(/C=C3\SC(=O)NC3=O)cccc2-c2ccccc2)C1` the maximum inhibition was 2.64% (human coronavirus OC43; virus-induced cell killing; MRC-5; screen).
